Measured values from different studies.
A part holds a random share of what one study measured. Values joined by “and” are separate records of one study, mostly repeats; a detail may differ.
Sequence of UniProt P53350 (whole entry, looked up): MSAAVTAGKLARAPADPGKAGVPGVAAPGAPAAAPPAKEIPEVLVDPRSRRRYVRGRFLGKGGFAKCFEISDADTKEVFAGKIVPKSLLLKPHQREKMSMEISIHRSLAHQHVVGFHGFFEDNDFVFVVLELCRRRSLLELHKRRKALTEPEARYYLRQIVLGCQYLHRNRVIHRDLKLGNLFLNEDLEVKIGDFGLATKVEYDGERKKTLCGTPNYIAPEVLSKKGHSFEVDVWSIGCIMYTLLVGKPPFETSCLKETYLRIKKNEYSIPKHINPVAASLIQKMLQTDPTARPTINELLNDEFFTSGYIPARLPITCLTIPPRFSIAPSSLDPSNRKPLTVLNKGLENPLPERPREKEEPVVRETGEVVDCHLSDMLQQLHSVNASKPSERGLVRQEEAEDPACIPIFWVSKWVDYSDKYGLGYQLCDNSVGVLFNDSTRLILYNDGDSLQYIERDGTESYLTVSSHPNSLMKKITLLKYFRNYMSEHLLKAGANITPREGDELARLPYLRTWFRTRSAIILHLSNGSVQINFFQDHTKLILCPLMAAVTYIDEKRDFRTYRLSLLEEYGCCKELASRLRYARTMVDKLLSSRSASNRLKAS
Sequence of UniProt P50613 (whole entry, looked up): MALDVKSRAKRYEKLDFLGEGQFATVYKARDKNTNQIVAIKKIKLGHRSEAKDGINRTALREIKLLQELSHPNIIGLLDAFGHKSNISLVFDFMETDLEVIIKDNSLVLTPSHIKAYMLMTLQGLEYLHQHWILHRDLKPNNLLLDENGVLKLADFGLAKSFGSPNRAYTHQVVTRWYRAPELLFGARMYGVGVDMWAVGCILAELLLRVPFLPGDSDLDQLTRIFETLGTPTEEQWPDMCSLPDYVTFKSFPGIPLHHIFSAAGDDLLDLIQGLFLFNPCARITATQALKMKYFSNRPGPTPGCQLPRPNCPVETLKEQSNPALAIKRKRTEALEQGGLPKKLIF
Sequence of UniProt Q16832 (whole entry, looked up): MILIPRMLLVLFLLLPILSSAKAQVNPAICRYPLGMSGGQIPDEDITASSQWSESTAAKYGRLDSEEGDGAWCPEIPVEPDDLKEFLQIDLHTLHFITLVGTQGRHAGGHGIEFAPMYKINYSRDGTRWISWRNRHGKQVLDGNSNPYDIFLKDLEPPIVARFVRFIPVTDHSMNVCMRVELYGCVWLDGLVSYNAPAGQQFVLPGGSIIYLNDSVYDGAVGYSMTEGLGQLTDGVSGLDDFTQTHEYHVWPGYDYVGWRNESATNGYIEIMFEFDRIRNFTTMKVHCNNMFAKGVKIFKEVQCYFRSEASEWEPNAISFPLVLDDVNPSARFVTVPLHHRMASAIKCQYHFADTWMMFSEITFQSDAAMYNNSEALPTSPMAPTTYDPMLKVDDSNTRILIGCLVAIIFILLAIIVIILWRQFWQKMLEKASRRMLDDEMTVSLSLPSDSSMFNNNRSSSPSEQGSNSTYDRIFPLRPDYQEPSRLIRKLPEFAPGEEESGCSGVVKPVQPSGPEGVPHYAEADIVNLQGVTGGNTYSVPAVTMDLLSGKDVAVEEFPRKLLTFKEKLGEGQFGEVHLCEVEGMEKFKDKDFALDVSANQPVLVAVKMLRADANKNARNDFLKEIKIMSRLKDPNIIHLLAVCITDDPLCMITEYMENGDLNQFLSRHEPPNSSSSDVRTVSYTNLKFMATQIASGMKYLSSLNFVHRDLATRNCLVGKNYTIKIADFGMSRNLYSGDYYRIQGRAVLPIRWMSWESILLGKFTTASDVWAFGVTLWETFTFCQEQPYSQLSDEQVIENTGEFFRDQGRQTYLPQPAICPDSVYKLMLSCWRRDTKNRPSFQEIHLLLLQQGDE
Sequence of UniProt P29597 (whole entry, looked up): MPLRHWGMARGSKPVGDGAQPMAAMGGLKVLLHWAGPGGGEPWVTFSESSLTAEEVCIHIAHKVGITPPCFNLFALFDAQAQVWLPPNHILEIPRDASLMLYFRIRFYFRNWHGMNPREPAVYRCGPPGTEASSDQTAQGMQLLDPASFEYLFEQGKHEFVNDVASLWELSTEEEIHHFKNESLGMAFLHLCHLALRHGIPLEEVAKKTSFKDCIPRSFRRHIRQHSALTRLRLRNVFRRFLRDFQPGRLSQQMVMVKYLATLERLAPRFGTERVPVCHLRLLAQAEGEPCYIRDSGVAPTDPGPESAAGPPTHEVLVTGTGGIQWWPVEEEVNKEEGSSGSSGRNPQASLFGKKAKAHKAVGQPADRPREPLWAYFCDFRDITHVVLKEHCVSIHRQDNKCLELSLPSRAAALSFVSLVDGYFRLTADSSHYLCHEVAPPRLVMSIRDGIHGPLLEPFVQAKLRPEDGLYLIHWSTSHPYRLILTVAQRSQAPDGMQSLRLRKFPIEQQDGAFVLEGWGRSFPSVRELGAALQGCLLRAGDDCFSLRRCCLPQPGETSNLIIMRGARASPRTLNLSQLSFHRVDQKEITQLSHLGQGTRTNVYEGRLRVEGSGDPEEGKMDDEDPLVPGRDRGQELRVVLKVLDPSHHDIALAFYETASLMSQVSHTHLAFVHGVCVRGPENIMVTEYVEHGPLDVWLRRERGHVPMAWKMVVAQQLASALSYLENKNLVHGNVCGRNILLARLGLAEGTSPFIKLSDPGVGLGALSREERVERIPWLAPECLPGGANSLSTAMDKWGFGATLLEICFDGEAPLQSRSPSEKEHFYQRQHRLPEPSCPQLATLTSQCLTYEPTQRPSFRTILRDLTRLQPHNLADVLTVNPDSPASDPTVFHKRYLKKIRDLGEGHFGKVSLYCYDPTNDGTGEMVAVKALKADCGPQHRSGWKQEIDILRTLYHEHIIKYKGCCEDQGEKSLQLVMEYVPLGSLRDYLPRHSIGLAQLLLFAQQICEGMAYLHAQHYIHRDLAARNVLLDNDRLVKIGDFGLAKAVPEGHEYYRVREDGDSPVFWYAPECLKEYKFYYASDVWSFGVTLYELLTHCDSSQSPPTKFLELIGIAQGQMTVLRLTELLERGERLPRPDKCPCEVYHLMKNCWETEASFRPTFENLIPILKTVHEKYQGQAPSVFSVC
Sequence of UniProt Q9Y2U5 (whole entry, looked up): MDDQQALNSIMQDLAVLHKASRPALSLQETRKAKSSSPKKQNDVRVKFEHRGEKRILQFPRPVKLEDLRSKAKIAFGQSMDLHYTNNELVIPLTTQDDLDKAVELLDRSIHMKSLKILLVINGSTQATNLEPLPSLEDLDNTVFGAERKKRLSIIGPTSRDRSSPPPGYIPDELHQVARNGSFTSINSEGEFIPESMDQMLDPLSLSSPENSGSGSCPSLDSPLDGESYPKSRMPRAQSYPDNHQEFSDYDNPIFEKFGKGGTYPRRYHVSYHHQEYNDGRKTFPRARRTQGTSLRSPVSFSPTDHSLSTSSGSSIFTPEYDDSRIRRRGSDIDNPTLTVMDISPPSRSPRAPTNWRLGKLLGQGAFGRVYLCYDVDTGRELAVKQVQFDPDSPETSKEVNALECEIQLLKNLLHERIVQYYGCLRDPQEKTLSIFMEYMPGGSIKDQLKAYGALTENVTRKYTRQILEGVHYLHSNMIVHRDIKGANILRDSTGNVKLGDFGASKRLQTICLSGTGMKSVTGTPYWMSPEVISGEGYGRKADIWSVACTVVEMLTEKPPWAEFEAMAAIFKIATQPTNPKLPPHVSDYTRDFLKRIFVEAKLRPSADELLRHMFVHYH

Study 1
Structure (SMILES): CCCOc1ccc([C@@H]2[C@@H](C(=O)O)[C@H](c3ccc4c(c3)OCO4)CN2CC(=O)Nc2c(CC)cccc2CC)cc1
Effect on: cell-free assay
Technique: competition with immobilised ligand
Concentration: 1 µM
Measurement: remaining binding
DDR2 (Homo sapiens, UniProt Q16832): 74%
PKN2 (Homo sapiens, UniProt Q16513): 100%
FGFR1 (Homo sapiens, UniProt P11362): 100%
PIK3CA (Homo sapiens, UniProt P42336, Q546K): 80%
MYLK3 (Homo sapiens, UniProt Q32MK0): 87%
Ribosomal protein S6 kinase alpha-5, N-terminal kinase domain (RPS6KA5, Homo sapiens, UniProt O75582): 99%
PLK1 (Homo sapiens, UniProt P53350): 95%
CDK7 (Homo sapiens, UniProt P50613): 86%
CAMK2B (Homo sapiens, UniProt Q13554): 88%
Non-receptor tyrosine-protein kinase TYK2, JH1 (TYK2, Homo sapiens, UniProt P29597): 74%
MAP3K2 (Homo sapiens, UniProt Q9Y2U5): 100%
Tyrosine-protein kinase ABL1, phosphorylated (ABL1, Homo sapiens, UniProt P00519, H396P): 90%
PLK4 (Homo sapiens, UniProt O00444): 82%
EGFR (Homo sapiens, UniProt P00533, del746-750): 66%
CDKL2 (Homo sapiens, UniProt Q92772): 96%

Study 2
SMILES: C=CCc1ccc(O)c(-c2ccc(O)c(CC=C)c2)c1
Effect on: chloride current
Measurement: normalized current
ANO1 del476-501/F628A: Anoctamin-1 (ANO1, Homo sapiens, UniProt Q5XXA6, del476-501/F628A)
Sequence of UniProt Q5XXA6 (whole entry, unmodified, looked up): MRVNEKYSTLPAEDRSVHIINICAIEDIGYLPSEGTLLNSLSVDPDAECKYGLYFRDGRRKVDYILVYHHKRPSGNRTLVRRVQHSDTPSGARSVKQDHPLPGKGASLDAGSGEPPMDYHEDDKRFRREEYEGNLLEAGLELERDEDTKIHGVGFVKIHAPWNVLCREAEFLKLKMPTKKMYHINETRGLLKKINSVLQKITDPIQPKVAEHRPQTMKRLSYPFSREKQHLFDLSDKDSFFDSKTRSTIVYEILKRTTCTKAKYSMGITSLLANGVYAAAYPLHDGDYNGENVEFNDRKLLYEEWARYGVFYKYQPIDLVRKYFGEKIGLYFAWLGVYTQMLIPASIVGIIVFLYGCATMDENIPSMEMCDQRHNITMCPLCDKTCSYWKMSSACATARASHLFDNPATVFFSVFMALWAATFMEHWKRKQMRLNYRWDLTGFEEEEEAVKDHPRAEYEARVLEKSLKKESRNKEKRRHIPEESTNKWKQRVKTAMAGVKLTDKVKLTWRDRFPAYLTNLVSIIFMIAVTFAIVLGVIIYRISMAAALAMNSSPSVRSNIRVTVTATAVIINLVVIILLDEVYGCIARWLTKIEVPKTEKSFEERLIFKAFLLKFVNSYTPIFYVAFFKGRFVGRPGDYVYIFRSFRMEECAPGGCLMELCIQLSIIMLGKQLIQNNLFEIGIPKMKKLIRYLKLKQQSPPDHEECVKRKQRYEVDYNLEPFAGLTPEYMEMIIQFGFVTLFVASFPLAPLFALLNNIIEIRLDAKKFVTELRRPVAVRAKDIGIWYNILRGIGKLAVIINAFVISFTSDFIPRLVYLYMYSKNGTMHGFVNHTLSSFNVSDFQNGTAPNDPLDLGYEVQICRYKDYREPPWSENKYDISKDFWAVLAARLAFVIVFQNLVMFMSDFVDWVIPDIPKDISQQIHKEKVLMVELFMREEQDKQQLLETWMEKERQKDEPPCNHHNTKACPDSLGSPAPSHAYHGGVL
ANO1 del476-501/F628A; whole-cell voltage clamp; 3 µM, I-V at -40 mV, with: 4 µM Ca2+: -0.291
ANO1 del476-501/F628A; whole-cell voltage clamp; 1 µM, I-V at 60 mV, with: 4 µM Ca2+: 0.485
Anoctamin-1 (ANO1, Homo sapiens, UniProt Q5XXA6, del476-501/N435G); inhibitor, whole-cell voltage clamp; concentration not given, N435G mutant: 0.374 and 0.497 and 0.361 and 0.413 and 0.388 and 0.395 and 0.403
Anoctamin-1 (ANO1, Homo sapiens, UniProt Q5XXA6, del476-501/E659A/K629A); inside-out patch clamp; 10 µM, membrane voltage 60 mV: 0.496
Anoctamin-1 (ANO1, Homo sapiens, UniProt Q5XXA6, del476-501); whole-cell voltage clamp; 1 µM, wild type, I-V at 60 mV, with: 4 µM Ca2+: 0.57
ANO1 del476-501/F628A; whole-cell voltage clamp; 3 µM, I-V at -100 mV, with: 4 µM Ca2+: -0.815
ANO1 del476-501/F628A; whole-cell voltage clamp; 10 µM, concentration-response at 40 mV, with: 4 µM Ca2+: 0.305

Study 3
Host: mouse
Matrix: microsomes or S9
Concentration: 2 µM
Time: 0.5 h
Measurement: remaining compound
CC12CCC(C(=O)N(c3ccccn3)c3ccccn3)(OC1=O)C2(C)C (stereo not drawn): 0.579%
COc1cc(=O)n2c(c1C(=O)NCc1ccccc1Cl)CCCC2: 52.3%
C=C1COC(c2cc(C)cc(C)c2)c2c(C(C)C)c(OC)nc(=O)n21 (stereo not drawn): 11.2%
Cc1c(CN2CCOCC2)c(=O)n(-c2ccccc2)n1C: > 100%
Cc1nc(NCC(C(C)C)N(C)C)c2nc(C)oc2n1 (stereo not drawn): 71.1%
Cc1nnc(SCC(=O)Nc2nc[nH]n2)s1: 55%
Cc1ccc(-c2cc(C(=O)Nc3ccc4c(c3)N(C)C(=O)CO4)no2)cc1: 24.8%
Cc1ccc(NC(=O)c2cc3ccccc3n2C)c(OCC(=O)N(C)C)c1: 15.2%
COc1cc2c(cc1OC)C1CCCCC1OC2c1cccc(F)c1 (stereo not drawn): 7.07%
Cc1cc(C)cc(N(C(=O)Cc2cccs2)C(C(=O)NC2CCCC2)c2ccncc2)c1 (stereo not drawn): 2.35%

Study 4
Target: Beta-1 adrenergic receptor (ADRB1, Homo sapiens, UniProt P08588)
Sequence of UniProt P08588 (whole entry, looked up): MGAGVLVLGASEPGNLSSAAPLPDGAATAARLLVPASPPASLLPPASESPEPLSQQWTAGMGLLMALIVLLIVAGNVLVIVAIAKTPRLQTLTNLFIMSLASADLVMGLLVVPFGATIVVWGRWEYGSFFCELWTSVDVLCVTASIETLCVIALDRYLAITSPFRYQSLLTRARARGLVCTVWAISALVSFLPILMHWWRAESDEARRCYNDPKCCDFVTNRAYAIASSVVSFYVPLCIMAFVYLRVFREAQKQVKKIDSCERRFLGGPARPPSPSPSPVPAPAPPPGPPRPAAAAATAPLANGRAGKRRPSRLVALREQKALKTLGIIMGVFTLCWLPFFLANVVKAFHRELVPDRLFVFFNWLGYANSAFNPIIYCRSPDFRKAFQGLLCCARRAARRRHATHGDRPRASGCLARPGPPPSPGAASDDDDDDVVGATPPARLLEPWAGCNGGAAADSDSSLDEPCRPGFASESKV
Mode: antagonist
Measurement: IC50
CN(C)c1cccc(C(=O)Nc2ncc(-c3cnn(C)c3)c3c2OCC3)c1: ≥ 100 µM
CN(C)c1cccc(C(=O)N2CCC3(CC2)NC(=O)N(c2cccc(Cl)c2)N3)c1: ≥ 100 µM
Cc1noc2c(NC3CCOCC3)cc(-c3ccccn3)nc12: ≥ 100 µM
COc1ccccc1N1CCN(CC(=O)Nc2cc(C)ccc2C)CC1: ≥ 100 µM
Cc1ccc(C(=O)N2CCN(c3cccc(Cl)c3)CC2)s1: ≥ 100 µM
O=C(Nc1cccc(-n2cnnn2)c1)c1cc2c(F)cccc2s1: ≥ 100 µM
CC(C)CN1C(=O)COC[C@@H]1[C@H](O)c1ccc(NC(=O)CCc2ccccc2)cc1: ≥ 100 µM

Repeated from above (study 3):
Cc1cc(C)cc(N(C(=O)Cc2cccs2)C(C(=O)NC2CCCC2)c2ccncc2)c1 (stereo not drawn): 2.35%
Cc1c(CN2CCOCC2)c(=O)n(-c2ccccc2)n1C: > 100%
C=C1COC(c2cc(C)cc(C)c2)c2c(C(C)C)c(OC)nc(=O)n21 (stereo not drawn): 11.2%
Cc1nnc(SCC(=O)Nc2nc[nH]n2)s1: 55%
COc1cc(=O)n2c(c1C(=O)NCc1ccccc1Cl)CCCC2: 52.3%
COc1cc2c(cc1OC)C1CCCCC1OC2c1cccc(F)c1 (stereo not drawn): 7.07%
